Published values collected from several papers.
Each numbered part is a random draw from the data of one study; scales do not carry over between parts. Changes are numbered by the printed parent chain.

Sample 1
Target: Histone acetyltransferase KAT6A, winged helix 2, GST fusion (KAT6A, Homo sapiens, UniProt Q92794, residues 85-181)
Method: protein binding microarray
Molecule type: double-stranded DNA, one strand shown
Matrix: in vitro
Tested at: not given
Notes: 8-mer, flanks averaged, mean of 2 arrays, mostly near background
Reference: not given
Reading: higher = stronger binding
Residues (chain): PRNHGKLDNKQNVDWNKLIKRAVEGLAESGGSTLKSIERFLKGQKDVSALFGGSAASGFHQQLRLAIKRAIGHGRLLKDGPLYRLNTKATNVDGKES
The E-score of `AGAAAATC` is reported as 0.0536.
With `CACGTACG` the E-score was -0.247.
`CAATTGGG` gave an E-score of -0.0227.
The E-score of `GCCTGTCA` is reported as 0.107.
`ATTGACCC` gave an E-score of 0.127.
The E-score of `ACCCTCAG` is reported as 0.0459.
The E-score of `ACCTCGCC` is reported as 0.00073.
The E-score of `AGTCGGCA` is reported as -0.0338.
`GTTCCACA` has an E-score of -0.0483.
With `AATTCTTG` the E-score was -0.0472.
For `CGGACGAA`, the E-score was 0.244.
The E-score of `ATTATAAC` is reported as -0.0203.
`AACTTCCC` has an E-score of -0.0912.
`TAAGGTAA` gave an E-score of 0.0257.
The E-score of `GGGTTAAA` is reported as -0.236.
`ACCATACT` gave an E-score of -0.0468.
For `CCCGACTA`, the E-score was -0.0131.
The E-score of `GGCTTGAA` is reported as 0.0317.
`CCTTGGAC` gave an E-score of -0.129.
The E-score of `GAGGGGAA` is reported as 0.195.
`CGCATTCC` gave an E-score of -0.0241.
`ACGCCCGA` has an E-score of 0.182.
`ACTATCGA` has an E-score of -0.0813.
The E-score of `AGCCCTGG` is reported as -0.141.
`ACATTACT` has an E-score of -0.118.

Sample 2
Target: UBE2O UBC core domain (UniProt Q9C0C9)
Method: yeast two-hybrid
Matrix: yeast
Notes: mostly zero background
Reference: not given
Reading: higher = stronger interaction
B1: RNF183 RING domain (UniProt Q96D59); chain EQQGRELEAECPVCWNPFNNTFHTPKMLDCCHSFCVECLAHLSLVTPARRRLLCPLCRQPTVLASGQP
B2: RNF2 RING domain (UniProt Q99496); chain SPRSLHSELMCPICLDMLKNTMTTKECLHRFCADCIITALRSGNKECPTCRKKLVSKRSLR
B3: MYCBP2 RING domain (UniProt O75592); chain TSLKQDADDMCMICFTEALSAAPAIQLDCSHIFHLQCCRRVLENRWLGPRITFGFISCPICKNKINHIVLKD
B4: RNF166 RING domain (UniProt Q96A37); chain GDSGLEAQYTCPICLEVYHRPVAIGSCGHTFCGECLQPCLQVPSPLCPLCRLPFDPKKVDK
B5: TRIM26 RING domain (UniProt Q12899); chain PLRSLEEEVTCSICLDYLRDPVTIDCGHVFCRSCTTDVRPISGSRPVCPLCKKPFKKENIRP
B6: TRIM31 RING domain (UniProt Q9BZY9); chain FVNKLQEEVICPICLDILQKPVTIDCGHNFCLKCITQIGETSCGFFKCPLCKTSVRKNAIRF
B7: RNF152 RING domain (UniProt Q8N8N0); chain ETLSQDSLLECQICFNYYSPRRRPKLLDCKHTCCSVCLQQMRTSQKDVRCPWCRGVTKLPPGFS
B8: ANAPC11 RING domain (UniProt Q9NYG5); chain GICRMAFNGCCPDCKVPGDDCPLVWGQCSHCFHMHCILKWLHAQQVQQHCPMCRQEWKFKE
Target sequence (chain): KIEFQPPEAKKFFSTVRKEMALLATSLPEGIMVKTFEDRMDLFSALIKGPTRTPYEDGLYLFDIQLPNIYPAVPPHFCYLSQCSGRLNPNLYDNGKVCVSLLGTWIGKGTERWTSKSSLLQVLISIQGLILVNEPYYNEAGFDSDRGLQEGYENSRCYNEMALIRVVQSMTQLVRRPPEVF
`B1 (RNF183 RING domain)`: “lacZ reporter activity” 0.
For `B2 (RNF2 RING domain)`, “lacZ reporter activity” read 0.
`B3 (MYCBP2 RING domain)` — result for “lacZ reporter activity”: 0.
Under “lacZ reporter activity”, `B4 (RNF166 RING domain)` is recorded as 0.
`B5 (TRIM26 RING domain)` — result for “lacZ reporter activity”: 0.
Under “lacZ reporter activity”, `RYRQMEERITCPICIDSHIRLVFQCGHGACAPCGSALSACPICRQPIRDRIQIF (MIB2 RING domain (UniProt Q96AX9))` is recorded as 0.
`PEELAVNNDDCAICWDSMQAARKLPCGHLFHNSCLRSWLEQDTSCPTCRMSLNIADNNR (AMFR RING domain (UniProt Q9UKV5))`: “lacZ reporter activity” 0.
`B6 (TRIM31 RING domain)`: “lacZ reporter activity” 0.
`B7 (RNF152 RING domain)` — result for “lacZ reporter activity”: 0.
For `AEADPLGRFTCPVCLEVYEKPVQVPCGHVFCSACLQECLKPKKPVCGVCRSALAPGVRAV (RNF114 RING domain (UniProt Q9Y508))`, “lacZ reporter activity” read 0.
`B8 (ANAPC11 RING domain)`: “lacZ reporter activity” 0.

Sample 3
Target: CCNE2, cyclin fold, Cln2 fusion (human)
Method: yeast growth competition, sequencing
Matrix: yeast
Notes: weak parent motif
Reference: not given
Reading: higher = stronger binding
Starting sequence: EXO1 docking peptide (human); KPECGRVQRAIFQ
`R6A` — result for “normalised enrichment score”: 0.246.
`Q13A`: “normalised enrichment score” 0.312.
`Q8A`: “normalised enrichment score” 0.48.
`E3A` — result for “normalised enrichment score”: 0.3.
`R9A`: “normalised enrichment score” 0.0678.
`V7A`: “normalised enrichment score” 0.191.

Sample 4
Target: Interferon regulatory factor 7, full length, phosphomimetic (IRF7, Homo sapiens, UniProt Q92985, residues 1-503, S101K/S471D/S472D/S475D/S476D/S477D/S483D/S484D/S487D)
UniProt Q92985, sequence (whole entry, unmodified, looked up): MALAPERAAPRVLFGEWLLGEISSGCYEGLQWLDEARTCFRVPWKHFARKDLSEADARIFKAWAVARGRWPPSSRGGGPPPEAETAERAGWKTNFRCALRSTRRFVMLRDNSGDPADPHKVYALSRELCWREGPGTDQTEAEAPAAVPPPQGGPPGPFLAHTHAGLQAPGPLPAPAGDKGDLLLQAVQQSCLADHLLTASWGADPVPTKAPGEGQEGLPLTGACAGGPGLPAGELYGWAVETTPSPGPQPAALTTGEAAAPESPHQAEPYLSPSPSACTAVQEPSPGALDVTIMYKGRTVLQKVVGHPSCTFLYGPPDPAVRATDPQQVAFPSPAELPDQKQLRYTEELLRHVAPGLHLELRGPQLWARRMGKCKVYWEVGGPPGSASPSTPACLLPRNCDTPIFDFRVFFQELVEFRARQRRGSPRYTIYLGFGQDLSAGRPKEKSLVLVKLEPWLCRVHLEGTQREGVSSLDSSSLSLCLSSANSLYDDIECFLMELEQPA
Method: protein-binding microarray
Molecule type: double-stranded DNA, one strand shown
Matrix: in vitro
Tested at: 250 nM
Notes: 60-bp whole probe
Added: salmon DNA 0.4 mg/ml
Reference: random background probes
Reading: higher = stronger binding
Shared flanks, not repeated: GCCTAGCAC … GTCTTGATTCGCTTGACGCTGCTG
For `GACGAACTGGGGTGTCGAGACGTGCTA`, the log fluorescence was -0.633 z-score.
`GACGGTCTCGGACTGGGGCCGTGCTAG` has a log fluorescence of 0.0162 z-score.
The log fluorescence of `GACGATATCAGTCGCGAGACGTGCTAG` is reported as -0.308 z-score.
The log fluorescence of `GACGGTATCGACTATCTGGACGTGCTA` is reported as -0.252 z-score.
With `TTAGATTTCACTTTCGATTAGTGCTAG` the log fluorescence was 4.67 z-score.
`TTAGGACTGGACACTAGGTTAGTGCTA` has a log fluorescence of -0.658 z-score.
`TTAGGAGTGCTACTGCTTTAGTGCTAG` has a log fluorescence of -1.25 z-score.
With `TTAGATATCACACTGGATTAGTGCTAG` the log fluorescence was -0.348 z-score.
With `GACGATCTCCGACTGGAGACGTGCTAG` the log fluorescence was -0.345 z-score.
`TTAGGTTTCAGTATCGATTAGTGCTAG` has a log fluorescence of 3.39 z-score.
With `CTCTGGGGGGTGGGATGAAGGTGCTAG` the log fluorescence was 3.9 z-score.
`CACACTTTCCCCTTCCTAGTGTGCTAG` has a log fluorescence of 1.97 z-score.
`GACGGTATCCTACCGCTGACGTGCTAG` has a log fluorescence of -0.211 z-score.
With `GTCGGTATCCTTATCCTGACGTGCTAG` the log fluorescence was 0.733 z-score.
For `TGAGAACTGGGGTATCGATTAGTGCTA`, the log fluorescence was -0.2 z-score.
For `GAGGGTTTCGGTCTCGGGACGTGCTAG`, the log fluorescence was 5.46 z-score.
With `GACGGACTGGACACTGGGGAAGTGCTA` the log fluorescence was -0.751 z-score.
The log fluorescence of `TTAGGTATCGGTCTCGATTAGTGCTAG` is reported as 1.87 z-score.
For `TTAGATCTCCGTATCGATTAGTGCTAG`, the log fluorescence was 0.348 z-score.

A few entries again (sample 1):
The E-score of `ACCCTCAG` is reported as 0.0459.
The E-score of `ACCTCGCC` is reported as 0.00073.
The E-score of `AGTCGGCA` is reported as -0.0338.
`GTTCCACA` has an E-score of -0.0483.
With `AATTCTTG` the E-score was -0.0472.
For `CGGACGAA`, the E-score was 0.244.
